Published values pooled from the literature.
Parts stem from different laboratories: compare values within a part only. Substitutions count along the parent as printed.

Series 1
Target: RNA binding protein fox-1 homolog 2, RRM domain, GST-SBP tag (RBFOX2, Homo sapiens, UniProt O43251-10, residues 100-194)
Technique: RNA Bind-n-Seq
Form: RNA
Sample: in vitro
Concentration: 365 nM
Notes: natural RNA segment, single round, ends assumed
Baseline: no-protein control
Direction: higher = stronger binding
Residues (chain): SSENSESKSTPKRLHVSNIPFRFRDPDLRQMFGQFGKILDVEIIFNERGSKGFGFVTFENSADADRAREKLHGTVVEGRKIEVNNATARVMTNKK
Sequence	RBNS enrichment (R)
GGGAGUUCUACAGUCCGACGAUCCUCUGCUUUCUCAGCUUGUCGCUGUGCUCCCACCAUAAGACCAUCUAGACAGCCUCUGGUCUACCAGGACAAGGCCCAGUCCCACUCAGCUCCUUUGAGAGCACCAGAAAUGGAAUUCUCGGGUGCCAA	0.278
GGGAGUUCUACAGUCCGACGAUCGUUUUAUUUGUAUAGUCUUACGUUGAUAGACAGCCCCACUGGAAUUGACCAAUUGUCUACACAGCGACACAGAGUGUUGUGUAUGAAACGGAGUAACUGGCUUAAGGGGUUGGAAUUCUCGGGUGCCAA	0.55
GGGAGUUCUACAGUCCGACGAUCGCUUCCCGGUCCCUCCGCGUGUGCCGAUUCCAGAUGACCUUCCAGUGUCCCCAAGGUUCUUCCAUCUUCUAGACUGUAACCCUGCCUCCCUGCUUCCUGGUCCAGAGCCUUGGAAUUCUCGGGUGCCAA	0.413
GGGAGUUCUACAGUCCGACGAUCACUCUCCCAAGGAAAAUAUUGCCACCAUUUGUAGACCACGUAACCUUCAAGUAUGUGCUACUUUUUUGUCCCUGUAUCUAACUCAAAUCAGGAACUGUAUUUUUUUUAAUUGGAAUUCUCGGGUGCCAA	0.643
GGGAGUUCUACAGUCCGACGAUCAUUGGGCAGGAGGCCACCAUCAUUUCUCCUCAGAAGCAAACCUCAGUGCCUGAGACUUUCCUGCCACGCUGCAGACAGUGGCAGUUGGUAGCAUGGGUGGUUCAUCAGAGUGGAAUUCUCGGGUGCCAA	1
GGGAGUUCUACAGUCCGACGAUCCCACAUGUACAGUGUCUGUAUAUAAAUGUGCUGUAUCUGUUCAUUUCUAUGACUGCAGGGUUUUUUUAUACAGUGUUUUUGGAUUCAUAAUAAAUUGAUGGUUUUUUAUGUGGAAUUCUCGGGUGCCAA	0.606
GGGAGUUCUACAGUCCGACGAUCCAGAGAGCAAACAGUGAGAUAACAGGAGCUGUCUGUCGCAAAGCUUGCUUUCCACUGACACUCAGUUCACCCUGCCACUCUGCAAGGUUUGCCUUGGGCAGCUGUGGGGUUGGAAUUCUCGGGUGCCAA	0.19
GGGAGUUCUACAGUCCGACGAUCUGACUACCUUGCUUACAGAUUCAUGGUUUGAUAAAUUUGUUGUAUUCAAAAACUUGAAAUGCAGGACGCCAUUAAGUGUCUGUUUAUAUUUUUGGAAUAUUUGUAUUACUUGGAAUUCUCGGGUGCCAA	0.812

Series 2
Target: ABI1, truncated, D143A, DHFR fusion (Arabidopsis thaliana)
Technique: DHFR PCA, deep sequencing
Sample: yeast
Notes: methotrexate growth selection, single substitutions
With: (+)-ABA 2500 µM
Baseline: wild-type fitted maximum
Direction: higher = stronger binding
Parent: PYL1, truncated, DHFR fusion (Arabidopsis thaliana); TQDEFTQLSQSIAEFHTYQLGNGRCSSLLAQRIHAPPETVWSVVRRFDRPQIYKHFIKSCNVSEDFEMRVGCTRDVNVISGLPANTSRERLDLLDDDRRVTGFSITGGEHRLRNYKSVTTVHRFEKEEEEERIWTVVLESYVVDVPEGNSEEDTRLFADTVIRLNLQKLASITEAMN; partner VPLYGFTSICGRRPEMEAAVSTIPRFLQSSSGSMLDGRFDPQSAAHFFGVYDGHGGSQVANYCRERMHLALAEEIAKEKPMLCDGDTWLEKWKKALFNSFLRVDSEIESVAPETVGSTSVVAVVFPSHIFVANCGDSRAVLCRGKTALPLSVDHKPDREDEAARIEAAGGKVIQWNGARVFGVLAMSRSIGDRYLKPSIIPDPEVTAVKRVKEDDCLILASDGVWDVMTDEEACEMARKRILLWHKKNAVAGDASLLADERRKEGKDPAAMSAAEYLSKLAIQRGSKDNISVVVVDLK
Variant	relative binding score [%]
V40S	37.8
H122Y	62.9
S42W	96
T17W	77.9
T86G	94.6
E152K	94.9
R113V	108
E89D	89.9
N85K	93
C60L	88.7
D159M	71.6
E152V	93.8
Y115I	-8.33
S11M	97.7
H34C	109
F66S	96
C72R	90
W41G	-39.3
Q31P	-4.63
V142I	93.4

Series 3
Target: Interferon regulatory factor 7, full length, phosphomimetic (IRF7, Homo sapiens, UniProt Q92985, residues 1-503, S101K/S471D/S472D/S475D/S476D/S477D/S483D/S484D/S487D)
Technique: protein-binding microarray
Form: double-stranded DNA, one strand shown
Sample: in vitro
Concentration: 250 nM
Notes: 60-bp whole probe
With: salmon DNA 0.4 mg/ml
Baseline: random background probes
Direction: higher = stronger binding
Constant ends, left off below: GCCTAGCAC … GTCTTGATTCGCTTGACGCTGCTG
Residues (chain): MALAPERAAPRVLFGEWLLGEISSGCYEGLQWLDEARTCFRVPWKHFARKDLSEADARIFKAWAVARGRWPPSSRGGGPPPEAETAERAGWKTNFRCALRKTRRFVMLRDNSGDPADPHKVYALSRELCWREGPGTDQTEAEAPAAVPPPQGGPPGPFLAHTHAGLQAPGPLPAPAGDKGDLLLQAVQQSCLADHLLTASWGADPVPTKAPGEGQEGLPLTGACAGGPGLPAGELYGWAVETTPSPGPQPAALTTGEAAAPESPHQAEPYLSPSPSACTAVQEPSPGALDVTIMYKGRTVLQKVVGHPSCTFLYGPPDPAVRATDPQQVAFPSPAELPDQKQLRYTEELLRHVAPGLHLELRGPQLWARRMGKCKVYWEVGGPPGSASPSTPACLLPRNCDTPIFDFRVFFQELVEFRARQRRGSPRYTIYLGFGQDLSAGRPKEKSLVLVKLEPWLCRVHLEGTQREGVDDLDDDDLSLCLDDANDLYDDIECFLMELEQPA
Sequence	log fluorescence
GACGATTTCAGTCTCGAGACGTGCTAG	1.06 z-score
GACGATTTCGGGAATGGAGACGTGCTA	0.296 z-score
TTAGGTATCCTAATCCTTTAGTGCTAG	0.413 z-score
TTAGATATCAGACTGGAATAGTGCTAG	-0.0999 z-score
GACGATTTCAGTTTAGAGACGTGCTAG	0.893 z-score
TTAGATATCGACTTTCGGTTAGTGCTA	1.75 z-score
TTAGGTTTCGGTTCTGGTTAGTGCTAG	12.7 z-score
TTAGATTCCAGTGTCGATTAGTGCTAG	0.772 z-score
TTCGATCTCAGTCTCGATTAGTGCTAG	1.28 z-score
GAGGGTTTCGGGTTTCGGGACGTGCTA	9.93 z-score
TCATATTTATAAATTATACTGTGCTAG	0.873 z-score
TTAGGACTTGACTATCGGTTAGTGCTA	-0.189 z-score
GACGATATCAGTTTCGGGACGTGCTAG	3.29 z-score
GACGAACTGAGTCTCGACACGTGCTAG	0.231 z-score
GACCAACTGGGGTATCGAGACGTGCTA	-0.232 z-score
TTAGATATCAGCATCGATTAGTGCTAG	0.0254 z-score
GACGGACTGCTTCTCCTGTCGTGCTAG	-0.0384 z-score
TCAATTATTGTTTCCTTACTGTGCTAG	1.28 z-score

Series 4
Target: CCNA1, cyclin fold, Cln2 fusion (human)
Technique: yeast growth competition, sequencing
Sample: yeast
Notes: weak parent motif
Baseline: not given
Direction: higher = stronger binding
Parent: BRCA2 docking peptide (human); CKKRRALDFLSRL
Variant	normalised enrichment score
F9L	-0.178
R5K	-0.125
L10A	0.489
C1A	-0.114
R5A L7A	0.263
R5A	0.341
L7A	0.511
F9A	0.388
L13A	0.473
